# Results pooled from the literature.
# Numbered parts are unrelated; each lists some results of a single study. Values joined by “and” are separate records of one study, mostly repeats; a detail may differ.
# Sequence of UniProt Q9HBH9 (whole entry, looked up): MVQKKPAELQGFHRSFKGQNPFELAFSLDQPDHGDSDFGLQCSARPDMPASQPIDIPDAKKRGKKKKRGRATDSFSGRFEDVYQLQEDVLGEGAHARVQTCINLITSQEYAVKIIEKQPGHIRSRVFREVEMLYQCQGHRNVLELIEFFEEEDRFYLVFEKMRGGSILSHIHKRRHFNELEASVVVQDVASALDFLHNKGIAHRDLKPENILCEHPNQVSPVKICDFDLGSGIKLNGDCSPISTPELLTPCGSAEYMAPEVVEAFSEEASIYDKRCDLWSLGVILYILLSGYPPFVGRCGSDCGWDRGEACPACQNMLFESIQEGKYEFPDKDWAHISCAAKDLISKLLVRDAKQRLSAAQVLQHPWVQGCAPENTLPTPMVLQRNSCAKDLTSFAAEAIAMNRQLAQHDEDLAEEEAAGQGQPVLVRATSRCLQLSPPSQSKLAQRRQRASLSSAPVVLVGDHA
# Sequence of UniProt P33981 (whole entry, looked up): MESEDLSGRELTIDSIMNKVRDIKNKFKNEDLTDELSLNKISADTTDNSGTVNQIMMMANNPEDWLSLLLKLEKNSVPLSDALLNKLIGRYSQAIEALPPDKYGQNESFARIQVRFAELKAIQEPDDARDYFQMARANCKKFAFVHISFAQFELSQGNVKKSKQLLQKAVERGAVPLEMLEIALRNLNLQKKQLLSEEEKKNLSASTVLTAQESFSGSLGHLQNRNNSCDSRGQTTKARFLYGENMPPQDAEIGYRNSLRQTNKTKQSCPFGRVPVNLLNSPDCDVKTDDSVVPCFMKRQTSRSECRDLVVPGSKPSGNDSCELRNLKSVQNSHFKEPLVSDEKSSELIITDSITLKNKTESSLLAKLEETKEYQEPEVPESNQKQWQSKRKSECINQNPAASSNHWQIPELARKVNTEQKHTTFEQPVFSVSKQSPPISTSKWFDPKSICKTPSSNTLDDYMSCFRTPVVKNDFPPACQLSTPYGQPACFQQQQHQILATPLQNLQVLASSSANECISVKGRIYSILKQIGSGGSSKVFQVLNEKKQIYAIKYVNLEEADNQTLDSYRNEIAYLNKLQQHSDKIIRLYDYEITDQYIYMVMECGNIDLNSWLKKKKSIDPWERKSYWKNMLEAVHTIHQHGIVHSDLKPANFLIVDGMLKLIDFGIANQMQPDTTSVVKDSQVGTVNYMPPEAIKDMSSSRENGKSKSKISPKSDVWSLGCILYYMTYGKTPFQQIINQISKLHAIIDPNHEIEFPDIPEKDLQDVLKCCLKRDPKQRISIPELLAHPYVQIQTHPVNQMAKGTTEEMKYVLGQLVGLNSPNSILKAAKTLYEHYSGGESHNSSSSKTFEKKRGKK
# Sequence of UniProt P78362 (whole entry, looked up): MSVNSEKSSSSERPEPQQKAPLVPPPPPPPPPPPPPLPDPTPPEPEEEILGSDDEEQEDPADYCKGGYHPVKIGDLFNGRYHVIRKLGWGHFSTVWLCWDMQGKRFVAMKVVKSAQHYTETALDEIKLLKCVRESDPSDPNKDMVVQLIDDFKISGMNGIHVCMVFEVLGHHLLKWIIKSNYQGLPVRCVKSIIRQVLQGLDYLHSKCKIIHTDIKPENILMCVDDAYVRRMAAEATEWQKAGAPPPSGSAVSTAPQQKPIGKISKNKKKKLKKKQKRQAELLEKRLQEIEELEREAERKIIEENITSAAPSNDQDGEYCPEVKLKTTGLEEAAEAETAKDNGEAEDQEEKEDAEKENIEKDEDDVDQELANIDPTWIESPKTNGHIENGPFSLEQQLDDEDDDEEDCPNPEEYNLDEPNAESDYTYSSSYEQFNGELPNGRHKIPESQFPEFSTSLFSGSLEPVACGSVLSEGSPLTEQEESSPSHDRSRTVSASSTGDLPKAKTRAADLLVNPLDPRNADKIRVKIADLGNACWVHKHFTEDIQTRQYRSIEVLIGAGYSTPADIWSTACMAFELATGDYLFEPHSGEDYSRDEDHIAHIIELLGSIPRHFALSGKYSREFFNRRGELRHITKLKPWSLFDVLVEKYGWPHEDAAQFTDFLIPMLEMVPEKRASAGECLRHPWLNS
# Sequence of UniProt Q8N752 (whole entry, looked up): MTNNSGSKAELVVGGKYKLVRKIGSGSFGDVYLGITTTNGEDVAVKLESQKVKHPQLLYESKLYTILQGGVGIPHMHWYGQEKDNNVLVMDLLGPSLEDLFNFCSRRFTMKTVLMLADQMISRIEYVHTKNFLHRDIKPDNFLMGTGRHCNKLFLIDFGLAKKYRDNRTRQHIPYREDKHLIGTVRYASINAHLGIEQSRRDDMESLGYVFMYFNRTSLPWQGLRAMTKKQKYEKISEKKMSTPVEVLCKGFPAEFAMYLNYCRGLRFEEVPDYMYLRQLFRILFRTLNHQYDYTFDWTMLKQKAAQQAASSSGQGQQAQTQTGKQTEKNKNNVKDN

# Series 1
# Target: DNA polymerase theta, ATPase domain (POLQ, Homo sapiens, UniProt O75417)
# Sequence of UniProt O75417 (whole entry, unmodified, looked up): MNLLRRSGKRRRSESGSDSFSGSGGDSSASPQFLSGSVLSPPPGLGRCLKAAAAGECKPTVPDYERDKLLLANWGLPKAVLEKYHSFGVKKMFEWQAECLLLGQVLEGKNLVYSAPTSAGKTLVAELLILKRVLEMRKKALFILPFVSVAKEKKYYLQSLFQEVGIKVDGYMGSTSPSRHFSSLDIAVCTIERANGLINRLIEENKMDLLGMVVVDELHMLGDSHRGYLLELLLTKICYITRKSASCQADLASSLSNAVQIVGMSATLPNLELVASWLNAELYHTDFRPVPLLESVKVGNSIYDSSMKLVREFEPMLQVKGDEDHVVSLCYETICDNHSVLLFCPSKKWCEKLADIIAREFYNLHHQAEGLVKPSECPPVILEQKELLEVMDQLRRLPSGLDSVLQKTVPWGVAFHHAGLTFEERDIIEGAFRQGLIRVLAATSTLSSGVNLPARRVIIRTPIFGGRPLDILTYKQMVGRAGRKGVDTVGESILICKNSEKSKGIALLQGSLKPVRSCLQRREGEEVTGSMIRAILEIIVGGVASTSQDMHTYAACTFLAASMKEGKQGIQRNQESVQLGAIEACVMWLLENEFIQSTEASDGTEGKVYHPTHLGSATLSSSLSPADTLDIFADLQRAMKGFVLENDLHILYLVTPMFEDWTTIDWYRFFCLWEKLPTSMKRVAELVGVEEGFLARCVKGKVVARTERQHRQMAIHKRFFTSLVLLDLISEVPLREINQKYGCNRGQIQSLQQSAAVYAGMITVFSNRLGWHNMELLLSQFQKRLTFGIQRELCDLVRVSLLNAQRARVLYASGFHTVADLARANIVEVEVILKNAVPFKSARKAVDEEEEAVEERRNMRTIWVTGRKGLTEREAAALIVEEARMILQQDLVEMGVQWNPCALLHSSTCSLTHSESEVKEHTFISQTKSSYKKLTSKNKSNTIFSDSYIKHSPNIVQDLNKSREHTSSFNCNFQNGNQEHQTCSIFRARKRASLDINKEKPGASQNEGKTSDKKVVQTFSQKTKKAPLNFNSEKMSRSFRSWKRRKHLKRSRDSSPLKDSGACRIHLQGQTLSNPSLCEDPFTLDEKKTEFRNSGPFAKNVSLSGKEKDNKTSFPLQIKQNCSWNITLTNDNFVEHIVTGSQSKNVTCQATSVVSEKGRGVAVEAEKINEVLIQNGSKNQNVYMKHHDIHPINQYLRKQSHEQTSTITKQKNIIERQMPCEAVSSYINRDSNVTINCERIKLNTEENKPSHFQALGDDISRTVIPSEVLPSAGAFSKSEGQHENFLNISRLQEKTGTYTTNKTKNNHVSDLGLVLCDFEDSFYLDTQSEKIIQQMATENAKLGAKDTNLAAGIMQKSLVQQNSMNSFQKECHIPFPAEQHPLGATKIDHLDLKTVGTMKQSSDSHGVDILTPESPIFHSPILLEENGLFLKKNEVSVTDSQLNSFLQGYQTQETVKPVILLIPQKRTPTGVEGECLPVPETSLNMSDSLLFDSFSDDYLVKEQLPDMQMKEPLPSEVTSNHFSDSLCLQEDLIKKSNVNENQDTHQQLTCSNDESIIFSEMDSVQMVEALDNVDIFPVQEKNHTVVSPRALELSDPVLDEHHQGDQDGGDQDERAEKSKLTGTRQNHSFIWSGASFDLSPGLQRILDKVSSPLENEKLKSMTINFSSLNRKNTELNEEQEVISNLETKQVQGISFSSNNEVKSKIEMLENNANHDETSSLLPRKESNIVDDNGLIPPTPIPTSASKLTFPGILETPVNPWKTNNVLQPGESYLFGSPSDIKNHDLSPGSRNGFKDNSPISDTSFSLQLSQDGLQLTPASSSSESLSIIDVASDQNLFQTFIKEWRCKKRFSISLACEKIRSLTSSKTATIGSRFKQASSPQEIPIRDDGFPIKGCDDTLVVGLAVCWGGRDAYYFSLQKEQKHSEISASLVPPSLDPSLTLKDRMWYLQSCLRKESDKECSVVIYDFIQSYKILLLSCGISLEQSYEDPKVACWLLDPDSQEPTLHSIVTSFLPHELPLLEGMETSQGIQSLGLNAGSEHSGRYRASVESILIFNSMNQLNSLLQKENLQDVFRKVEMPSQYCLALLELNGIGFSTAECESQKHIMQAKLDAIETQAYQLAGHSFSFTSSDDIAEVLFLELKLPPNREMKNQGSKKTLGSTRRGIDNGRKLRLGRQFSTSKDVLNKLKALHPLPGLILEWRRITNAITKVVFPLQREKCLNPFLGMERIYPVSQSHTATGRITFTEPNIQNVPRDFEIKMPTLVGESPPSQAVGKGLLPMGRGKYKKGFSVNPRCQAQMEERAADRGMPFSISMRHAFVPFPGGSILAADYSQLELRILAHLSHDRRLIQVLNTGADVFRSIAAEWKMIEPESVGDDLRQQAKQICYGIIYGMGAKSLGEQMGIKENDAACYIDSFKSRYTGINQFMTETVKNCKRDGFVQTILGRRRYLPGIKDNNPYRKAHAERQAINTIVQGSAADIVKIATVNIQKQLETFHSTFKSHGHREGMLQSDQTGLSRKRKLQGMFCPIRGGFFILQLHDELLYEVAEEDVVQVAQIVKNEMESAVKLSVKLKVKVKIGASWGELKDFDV
# Observed: enzyme activity
# Action: inhibitor
# Tested at: 77 µM
# Baseline: untreated
SMILES,remaining activity
Cc1c2ccncc2c(C)c2c1[nH]c1ccccc12,102% and 105%
Cn1cnc(CCN)c1,102%
C[C@]12CC[C@@H](O)C[C@@H]1CC[C@@H]1[C@@H]2CC[C@]2(C)C(=O)CC[C@@H]12,103%
COP(=O)(OC)C(O)C(Cl)(Cl)Cl (stereo not drawn),91.2%
C[C@@H]1CN([C@H]2CC[C@](C#N)(c3ccc(F)cc3)CC2)CC[C@]1(C(=O)O)c1ccccc1,91.7%
COc1ccc(CNC(=O)/C=C/c2ccc3[nH]cc(CCN(C)C)c3c2)cc1,102%

# Series 2
# Compound: Cn1cncc1[C@@](O)(COc1ccc(C#N)cc1-c1ccc(OC(F)(F)F)cc1)c1ccc(C#N)cc1
# Method: competition with immobilised ligand
# Tested at: 1 µM
target,assay,remaining binding [%]
"MYLK4 (Homo sapiens, UniProt Q86YV6)",cell-free assay,97
"PIK3C3 (Homo sapiens, UniProt Q8NEB9)",cell-free assay,100
"CDKL2 (Homo sapiens, UniProt Q92772)",binding,93
"Ribosomal protein S6 kinase alpha-1, N-terminal kinase domain (RPS6KA1, Homo sapiens, UniProt Q15418)",cell-free assay,72
"CDC42BPB (Homo sapiens, UniProt Q9Y5S2)",cell-free assay,95
"RIPK4 (Homo sapiens, UniProt P57078)",cell-free assay,94
"Ribosomal protein S6 kinase alpha-6, C-terminal kinase domain (RPS6KA6, Homo sapiens, UniProt Q9UK32)",cell-free assay,100
"EGFR (Homo sapiens, UniProt P00533, del747-752/P753S)",cell-free assay,100
"PRKD2 (Homo sapiens, UniProt Q9BZL6)",cell-free assay,100
"MAP2K3 (Homo sapiens, UniProt P46734)",cell-free assay,100
"NEK7 (Homo sapiens, UniProt Q8TDX7)",cell-free assay,99
"CSNK1A1L (Homo sapiens, UniProt Q8N752)",cell-free assay,100
"RIOK2 (Homo sapiens, UniProt Q9BVS4)",cell-free assay,100
"EGFR (Homo sapiens, UniProt P00533, L858R)",cell-free assay,100
"EGFR (Homo sapiens, UniProt P00533)",cell-free assay,100
"MKNK2 (Homo sapiens, UniProt Q9HBH9)",cell-free assay,74
"VRK2 (Homo sapiens, UniProt Q86Y07)",cell-free assay,95
"CDK3 (Homo sapiens, UniProt Q00526)",cell-free assay,100

# Series 3
# SMILES: N/C(=N\[N+](=O)[O-])N/N=C\c1ccc(-c2cccc([N+](=O)[O-])c2)o1
# Observed: enzyme activity
# Action: inhibitor
# Tested at: 0.5 µM
# Baseline: control
target,remaining activity
"TSSK1B (Homo sapiens, UniProt Q9BXA7)",96.7%
"ZAP70 (Homo sapiens, UniProt P43403)",93.1%
"PIM3 (Homo sapiens, UniProt Q86V86)",114%
"CHUK (Homo sapiens, UniProt O15111)",88.1%
"PTK6 (Homo sapiens, UniProt Q13882)",101%
"STK4 (Homo sapiens, UniProt Q13043)",96.5%
"SRPK2 (Homo sapiens, UniProt P78362)",101%
"PDGFRA (Homo sapiens, UniProt P16234)",93.2%
"TTK (Homo sapiens, UniProt P33981)",95.9%

# Series 4
# Cell line: A-375
# Tested at: 100 µM
# Time: 36 h
Compound,viability [%]
COc1ccc(CN2CCNCC2)c(OC)c1OC,113
C[C@]12CCC(=O)C=C1CC[C@@H]1[C@@H]2CC[C@@]2(C)[C@H]1CC[C@]2(C)O,91.8
C[C@]12CC[C@H]3[C@@H](CC[C@@]45O[C@@H]4C(O)=C(C#N)C[C@]35C)[C@@H]1CC[C@@H]2O,44.3
COc1ccc(C(CN(C)C)C2(O)CCCCC2)cc1 (stereo not drawn),114
Oc1cccc2cccnc12,41.1
NC(=O)C[S+]([O-])C(c1ccccc1)c1ccccc1 (stereo not drawn),102

# A few entries again (series 4):
Compound,viability [%]
COc1ccc(CN2CCNCC2)c(OC)c1OC,113
C[C@]12CCC(=O)C=C1CC[C@@H]1[C@@H]2CC[C@@]2(C)[C@H]1CC[C@]2(C)O,91.8
C[C@]12CC[C@H]3[C@@H](CC[C@@]45O[C@@H]4C(O)=C(C#N)C[C@]35C)[C@@H]1CC[C@@H]2O,44.3
COc1ccc(C(CN(C)C)C2(O)CCCCC2)cc1 (stereo not drawn),114
Oc1cccc2cccnc12,41.1
